Assay results pooled from the literature.
Each line is one published result; not all experiments were run side by side. Several values in a cell are separate wells, animals, samples, runs or records. ± gives the spread as reported. In brackets after ≈: the same amount, converted by molar mass.

CC(C)C[C@@H]1NC(=O)[C@H](CCCNC(=N)N)NC(=O)[C@@H]2CCCN2C(=O)[C@@H]2CSSC[C@H](NC(=O)CNC(=O)[C@@H]3CCCN3C(=O)[C@H](CCCCN)NC(=O)[C@H](CC(=O)O)NC(=O)[C@@H](NC(=O)CN)C(C)C)C(=O)N[C@@H](CCCNC(=N)N)C(=O)N[C@@H](Cc3ccc(O)cc3)C(=O)N[C@@H](CC(C)C)C(=O)N[C@@H](Cc3ccccc3)C(=O)NCC(=O)NCC(=O)N[C@H]3CSSC[C@H](NC(=O)CNC1=O)C(=O)N[C@@H](CCCCN)C(=O)NCC(=O)N[C@@H](CCCCN)C(=O)NCC(=O)N[C@@H](Cc1c[nH]cn1)C(=O)N[C@@H](CC(=O)O)C(=O)N[C@@H](Cc1ccc(O)cc1)C(=O)N[C@H](C(=O)N[C@@H](C)C(=O)N[C@@H](Cc1c[nH]c4ccccc14)C(=O)N[C@@H](CC(=O)O)C(=O)NCC(=O)N[C@H](C(=O)N[C@@H](Cc1ccccc1)C(=O)N[C@@H](CO)C(=O)N[C@@H](CC(=O)O)C(=O)O)[C@@H](C)O)CSSC[C@H](NC(=O)[C@H](CC(=O)O)NC(=O)[C@H](CC(=O)O)NC(=O)[C@H](CC(=O)O)NC(=O)[C@H](CO)NC(=O)[C@H](CCCCN)NC3=O)C(=O)N2 — inactivation time constant ratio (SCN4A (Homo sapiens, UniProt P35499); sodium current, automated patch clamp; HEK293; 1 µM, 50 ms depolarizing pulse; reference: compound over control): 0.91 ± 0.05
CCCCCCCCCCCCCCCC(=O)N[C@@H](CCC(=O)NCCOCCOCCC(=O)NCCOCCOCCC(=O)NCCCC[C@H](NC(=O)[C@H](CC(=O)O)NC(=O)[C@H](CC(C)C)NC(=O)[C@H](Cc1ccc(O)cc1)NC(=O)[C@H](CCCCN)NC(=O)[C@H](CO)NC(=O)[C@H](Cc1ccc(O)cc1)NC(=O)[C@H](CC(=O)O)NC(=O)[C@H](CO)NC(=O)[C@@H](NC(=O)[C@H](Cc1ccccc1)NC(=O)[C@@H](NC(=O)CNC(=O)[C@H](CCC(N)=O)NC(=O)[C@@H](CO)NC(=O)[C@@H](N)Cc1c[nH]cn1)[C@@H](C)O)[C@@H](C)O)C(=O)N[C@@H](CCCNC(=N)N)C(=O)N[C@@H](CCCNC(=N)N)C(=O)N[C@@H](C)C(=O)N[C@@H](CCC(N)=O)C(=O)N[C@@H](CC(=O)O)C(=O)N[C@@H](Cc1ccccc1)C(=O)N[C@H](C(=O)N[C@@H](CCC(N)=O)C(=O)N[C@@H](Cc1c[nH]c2ccccc12)C(=O)N[C@@H](CC(C)C)C(=O)N[C@@H](CC(C)C)C(=O)N[C@@H](CC(N)=O)C(=O)N[C@H](C(=O)NCC(=O)NCC(=O)N1CCC[C@H]1C(=O)N[C@@H](CO)C(=O)N[C@@H](CO)C(=O)NCC(=O)N[C@@H](C)C(=O)N1CCC[C@H]1C(=O)N1CCC[C@H]1C(=O)N1CCC[C@H]1C(=O)N[C@@H](CO)C(N)=O)[C@@H](C)O)C(C)C)C(=O)O — total bilirubin (rhesus monkey, female; subcutaneous, 20 µg/kg once daily, 28 days): 3.5 ± 1.2 µmol/L
CC(=O)N[C@H]1[C@@H](OC[C@H](NC(=O)[C@H](C)NC(=O)[C@H](C)N)C(=O)N[C@H](C(=O)N[C@H](C(=O)N[C@H](C(=O)N2CCC[C@H]2C(=O)N[C@@H](C)C(=O)N2CCC[C@H]2C(=O)N[C@@H](C)C(N)=O)[C@@H](C)O[C@H]2O[C@H](CO)[C@H](O)[C@H](O[C@@H]3O[C@H](CO)[C@H](O)[C@H](O)[C@H]3O)[C@H]2NC(C)=O)[C@@H](C)O[C@H]2O[C@H](CO)[C@H](O)[C@H](O[C@@H]3O[C@H](CO)[C@H](O)[C@H](O)[C@H]3O)[C@H]2NC(C)=O)[C@@H](C)O[C@H]2O[C@H](CO)[C@H](O)[C@H](O[C@@H]3O[C@H](CO)[C@H](O)[C@H](O)[C@H]3O)[C@H]2NC(C)=O)O[C@H](CO)[C@H](O)[C@@H]1O[C@@H]1O[C@H](CO)[C@H](O)[C@H](O)[C@H]1O — kon (Metalloprotease StcE (stcE, Escherichia coli O157:H7, UniProt O82882); binding; Escherichia coli, EHEC; pH 7.5): 2.38e+06 M⁻¹ s⁻¹
O=C(O[C@H]1Cc2c(O)cc(O)cc2OC1c1cc(O)c(O)c2c(=O)c(O)cc(C3Oc4cc(O)cc(O)c4C[C@H]3O)cc12)c1cc(O)c(O)c(O)c1 (stereo partly shown) — activity (Replicase polyprotein 1a, main protease (Severe acute respiratory syndrome-related coronavirus, UniProt P0C6U8); 3CL protease activity; 10 µM): active
CC[C@H](C)[C@H](NC(=O)[C@H](CCCN)NC(=O)[C@H](CC(=O)O)NC(=O)[C@H](CC(C)C)NC(=O)C(C)(CC(C)C)NC(=O)[C@@H](NC(=O)[C@H](CO)NC(=O)[C@H](Cc1ccc(O)cc1)NC(=O)[C@H](CC(=O)O)NC(=O)[C@H](CO)NC(=O)[C@@H](NC(=O)[C@H](Cc1ccccc1)NC(=O)[C@@H](NC(=O)CNC(=O)[C@H](CCC(=O)O)NC(=O)C(C)(C)NC(=O)[C@@H](N)Cc1ccc(O)cc1)[C@@H](C)O)[C@@H](C)CC)[C@@H](C)CC)C(=O)N[C@@H](Cc1c[nH]cn1)C(=O)N[C@@H](CCC(N)=O)C(=O)NC(C)(C)C(=O)N[C@@H](CC(=O)O)C(=O)N[C@@H](Cc1ccccc1)C(=O)N[C@H](C(=O)N[C@@H](CCC(=O)O)C(=O)N[C@@H](Cc1ccc(O)cc1)C(=O)N[C@@H](CCCCNC(=O)COCCOCCNC(=O)COCCOCCNC(=O)CC[C@H](NC(=O)CCCCCCCCCCCCCCCCCCC(=O)O)C(=O)O)C(=O)N[C@@H](CC(C)C)C(=O)N[C@@H](CCC(=O)O)C(=O)NCC(=O)NCC(=O)N1CCC[C@H]1C(=O)N[C@@H](CO)C(=O)N[C@@H](CO)C(=O)NCC(=O)N[C@@H](C)C(=O)N1CCC[C@H]1C(=O)N1CCC[C@H]1C(=O)N1CCC[C@H]1C(=O)N[C@@H](CO)C(N)=O)C(C)C (stereo partly shown) — Emax (Gastric inhibitory polypeptide receptor (Rattus norvegicus, UniProt P43219); cAMP, agonist; HEK293): 104%
Cc1ccc(N)cc1C(=O)NC(C)(C)c1ccc2c3c(cccc13)CC2 — thermal shift (ΔTm) (Replicase polyprotein 1a, papain-like protease (Severe acute respiratory syndrome coronavirus 2, UniProt P0DTC1); binding; 10 µM): 2.2 °C and 1.2 °C and 2 °C
CS(=O)(=O)NCC1CCOC2(CCN(C(=O)Cc3ccccc3)CC2)C1 (stereo not shown) — nsP2 ATPase inhibition (Polyprotein P1234, nsP2 (Chikungunya virus, UniProt Q8JUX6); nsP2 ATPase activity, inhibitor, ADP-Glo; high micromolar): inactive
COc1ccc(/C=N/NC(=O)C(C)(C)Oc2ccc(Cl)cc2)c(C(=O)O)c1OC — koff (uncharacterized protein (Candidatus Liberibacter solanacearum, UniProt A0A094YYW1)): 0.00147 s⁻¹
CC(=O)N[C@@H](Cc1cn(CCCO[C@@H]2O[C@H](CO)[C@H](O)[C@H](O)[C@H]2O)nn1)C(N)=O — inhibition potency (ctxB, pentamer (Vibrio cholerae, UniProt P01556); concentration not given; reference: galactose): 8 fold
CC(C)C[C@H](NC(=O)CNC(=O)[C@H](Cc1ccccc1)NC(=O)[C@@H](NC(=O)[C@@H](N)[C@@H](C)O)C(C)C)C(=O)N[C@@H](CC(N)=O)C(=O)N[C@H](C(=O)N[C@@H](Cc1c[nH]c2ccccc12)C(=O)N[C@@H](CCCCN)C(=O)N[C@@H](CCCNC(=N)N)C(=O)N[C@@H](Cc1ccc(O)cc1)C(=O)N[C@@H](CO)C(=O)N[C@@H](CCCCN)C(=O)NCC(=O)N[C@@H](CCCCNc1ccc([N+](=O)[O-])cc1[N+](=O)[O-])C(N)=O)C(C)C — kon (Spike glycoprotein, RBD (Severe acute respiratory syndrome coronavirus 2, UniProt P0DTC2); binding): 22400 to 24400 M⁻¹ s⁻¹
CC[C@H](C)[C@@H]1NC(=O)[C@H](CCCNC(=N)N)NC(=O)[C@H](CO)NC(=O)[C@H](CCC(=O)O)NC(=O)[C@H](CC(=O)O)NC(=O)CNC(=O)CNC(=O)[C@H]([C@@H](C)O)NC(=O)[C@H](Cc2ccccc2)NC(=O)[C@H](CO)NC(=O)[C@H]([C@@H](C)O)NC(=O)[C@H](C)NC(=O)[C@@H]2CSSC[C@@H](C(=O)N[C@@H](Cc3ccc(O)cc3)C(=O)N[C@@H](Cc3ccccc3)C(=O)N[C@H](C(=O)N[C@H](C(=O)NCC(=O)O)[C@@H](C)O)[C@@H](C)O)NC(=O)[C@H]([C@@H](C)O)NC(=O)[C@H](CSSC[C@H](NC(=O)[C@H](CCC(=O)O)NC(=O)[C@H](CO)NC(=O)[C@H](CCCCN)NC(=O)[C@H](Cc3ccc(O)cc3)NC(=O)[C@@H]3CCCN3C(=O)[C@H](Cc3ccccc3)NC(=O)[C@H](CCCCN)NC(=O)[C@H](CCCNC(=N)N)NC(=O)[C@H](CCCCN)NC(=O)[C@H](CCCCN)NC(=O)[C@H](Cc3ccc(O)cc3)NC(=O)[C@@H]3CCCN3C(=O)[C@@H](NC(=O)[C@H](CC(=O)O)NC(=O)[C@H](CCCCN)NC(=O)[C@H](CCCCN)NC(=O)[C@@H](NC(=O)[C@@H](NC(=O)[C@@H](N)CCC(=O)O)C(C)C)[C@@H](C)CC)[C@@H](C)O)C(=O)N[C@@H](CC(C)C)C(=O)N[C@@H](CCCCN)C(=O)N[C@@H](C)C(=O)N2)NC(=O)[C@H](CCCCN)NC(=O)[C@H](Cc2ccccc2)NC(=O)[C@H](Cc2ccccc2)NC(=O)CNC(=O)[C@@H]2CCCN2C(=O)[C@H](CCCCN)NC(=O)CNC(=O)[C@H](CCC(=O)O)NC(=O)[C@H](CCC(N)=O)NC1=O — Hill slope (KCNQ4 (Homo sapiens, UniProt P56696, D288A); potassium current, whole-cell patch clamp; HEK-293T): 1.76 ± 0.08
CCCCCCCCCCCCCCCC(=O)N[C@@H](CCC(=O)NCCCC[C@H](NC(=O)[C@H](CC(=O)O)NC(=O)[C@H](CO)NC(=O)[C@@H](NC(=O)[C@H](Cc1ccccc1)NC(=O)[C@@H](NC(=O)CNC(=O)[C@H](CCC(N)=O)NC(=O)[C@H](C)NC(=O)[C@@H](Cc1ccc(O)cc1)NC(C)=O)[C@@H](C)O)[C@@H](C)O)C(=O)N[C@@H](CO)C(=O)N[C@@H](CCCCN)C(=O)N[C@@H](Cc1ccc(O)cc1)C(=O)N[C@@H](CC(C)C)C(=O)N[C@@H](CC(=O)O)C(=O)N[C@@H](CCC(=O)O)C(=O)N[C@@H](CCCNC(=N)N)C(=O)N[C@@H](C)C(=O)N[C@@H](C)C(=O)N[C@@H](CCC(N)=O)C(=O)N[C@@H](CC(=O)O)C(=O)N[C@@H](Cc1ccccc1)C(=O)N[C@H](C(=O)N[C@@H](CCC(N)=O)C(=O)N[C@@H](Cc1c[nH]c2ccccc12)C(=O)N[C@@H](CC(C)C)C(=O)N[C@@H](CC(C)C)C(=O)N[C@@H](CCC(=O)O)C(=O)NCC(=O)NCC(=O)N1CCC[C@H]1C(=O)N[C@@H](CO)C(=O)N[C@@H](CO)C(=O)NCC(=O)N[C@@H](C)C(=O)N1CCC[C@H]1C(=O)N1CCC[C@H]1C(=O)N1CCC[C@H]1C(=O)N[C@@H](CO)C(N)=O)C(C)C)C(=O)O — clearance (male Wistar rat, plasma; intravenous, 0.02 mg/kg): 0.737 mL/min/kg
CC[C@H](C)[C@H](NC(=O)[C@H](CCCCN)NC(=O)[C@H](CCCCN)NC(=O)[C@H](CC(C)C)NC(=O)[C@H](Cc1c[nH]c2ccccc12)NC(=O)CN)C(=O)NCC(=O)N[C@@H](CCCCN)C(=O)N[C@@H](CCCCN)C(=O)N[C@H](C(=O)N[C@@H](CCC(=O)O)C(=O)N[C@@H](CCCNC(=N)N)C(=O)N[C@H](C(=O)NCC(=O)N[C@@H](CCC(N)=O)C(=O)N[C@@H](Cc1c[nH]cn1)C(=O)N[C@H](C(=O)N[C@@H](CCCNC(=N)N)C(=O)N[C@@H](CC(=O)O)C(=O)N[C@@H](C)C(=O)N[C@H](C(=O)N[C@H](C(=O)N[C@@H](CCC(N)=O)C(=O)N[C@H](C(=O)N[C@H](C(=O)NCC(=O)N[C@H](C(=O)N[C@@H](C)C(=O)N[C@@H](CCC(N)=O)C(=O)N[C@@H](CCC(N)=O)C(=O)N[C@@H](C)C(=O)N[C@@H](C)C(=O)N[C@@H](CC(N)=O)C(=O)N[C@H](C(=O)N[C@@H](C)C(=O)N[C@@H](C)C(=O)N[C@H](C(=O)N[C@@H](CC(C)C)C(=O)N[C@@H](CCCCN)C(N)=O)[C@@H](C)O)C(C)C)C(C)C)[C@@H](C)CC)[C@@H](C)O)[C@@H](C)CC)[C@@H](C)O)[C@@H](C)O)C(C)C)[C@@H](C)CC — MIC (Klebsiella pneumoniae; broth microdilution; RKI 93/10, CAMHB with 10% mouse serum; 150 mM NaCl): 1 µg/mL (≈ 0.238 µM)
